Assay results pooled from the literature.
± marks the error that the study gave.
Method: steady-state kinetics
B1: PYCR2 R119C (Homo sapiens, UniProt Q96C36); chain MSVGFIGAGQLAYALARGFTAAGILSAHKIIASSPEMNLPTVSALRKMGVNLTRSNKETVKHSDVLFLAVKPHIIPFILDEIGADVQARHIVVSCAAGVTISSVEKKLMAFQPAPKVICCMTNTPVVVQEGATVYATGTHALVEDGQLLEQLMSSVGFCTEVEEDLIDAVTGLSGSGPAYAFMALDALADGGVKMGLPRRLAIQLGAQALLGAAKMLLDSEQHPCQLKDNVCSPGGATIHALHFLESGGFRSLLINAVEASCIRTRELQSMADQEKISPAALKKTLLDRVKLESPTVSTLTPSSPGKLLTRSLALGGKKD
B2: SABP2 A105N (Nicotiana tabacum, UniProt Q6RYA0); chain MKEGKHFVLVHGACHGGWSWYKLKPLLEAAGHKVTALDLAASGTDLRKIEELRTLYDYTLPLMELMESLSADEKVILVGHSLGGMNLGLAMEKYPQKIYAAVFLNAFMPDSVHNSSFVLEQYNERTPAENWLDTQFLPYGSPEEPLTSMFFGPKFLAHKLYQLCSPEDLALASSLVRPSSLFMEDLSKAKYFTDERFGSVKRVYIVCTEDKGIPEEFQRWQIDNIGVTEAIEIKGADHMAMLCEPQKLCASLLEIAHKYN
B3: enzyme Y414S/Y415A (Methanosarcina mazei, UniProt Q8PVB1); chain MSEQRSVPLREHLLALKPCRHGGLIQETSETYGIPENEILDFSANFNPLGSPFDYPENGLNFEDIIKKSCGKLLEYPDNRYVEFREAAARFVGLGVTPQSIVPGNGSTEIVRLVVESVIEKGDKVLLPWPTFGEYEMQCRITGAEPVCPSQEEVNTLPDEVLEEAKILFICNPNNPTGKLRTREELKVLAERCREHKTLLYVDEAFIELSDPSQSVADLPAENNYVFVMRSLTKDFAIPGIRMGFGIAPPAMADILNTARLSWNLGAIANNTGIALLNIEGGIDSPYLKKAREMILKEGETLKAKIDRIRGFEAGEVNVNFILVDVSKFMLNSSELTARLAARGVLVRDCVSFHGLGKNYIRVAVRTEKENDRLIAAIGDVITEWGREQAKNELQHVIEKASEEGIGGRKTCESAPCHFEGQNCTFCFCPFYPCENEKTGGKWIQSSRGGRVWSCVDCHLVHKKEIAQKILDCLMHEGDTDELVKVAWKEVMEPIL
B4: enzyme (Pseudomonas poae, UniProt A0A2S9EJ63); chain MSTQHYDYIIVGGGSAGSVLANRLSAQADKRVLLIEAGADTPEHDTPTDILDGLQPWLPRLAGERYFWPGLNILRASEHGDIPREPQLYEQARILGGGSSVNMMVANRGLPRDYDEWARLGADGWDWQGVLPYFRKLERDLDFGHSHPEQHGQDGPIPIARVDSRHWGSFTRASAQALHTQGLNDIVDQNGRFEDGYFAPAVAIEHDQRVSSARAYLNAAVRARPNLSVWADTTVRQLTVKGQRVTGVQAVRDGRTVELAGDEVILAAGALQSPAFLLRAGIGPADQLRDLGIEVIADRPGVGRNLWDHSSIGLSASLHHPQVPSDEPGAAHLLAARVSSGVEPSVPGDLYLGIAPNAALGLASAVLWVNKPSSSGHLRLRSKDPADYPAVEFNLLSDRRDLERLRQGLRLLARVFAHPAVAAFSGPPRLSRFAQASNEGPLLSELLANDAQLERYLRTHVGGVWHASGTCRIGRADDPQAVVDHAGRVHGVQGLRVADASVFPSIPTANTNLPTLMIAEKIAEAILANA
B5: RDH13 (Homo sapiens, UniProt Q8NBN7); chain MSRYLLPLSALGTVAGAAVLLKDYVTGGACPSKATIPGKTVIVTGANTGIGKQTALELARRGGNIILACRDMEKCEAAAKDIRGETLNHHVNARHLDLASLKSIREFAAKIIEEEERVDILINNAGVMRCPHWTTEDGFEMQFGVNHLGHFLLTNLLLDKLKASAPSRIINLSSLAHVAGHIDFDDLNWQTRKYNTKAAYCQSKLAIVLFTKELSRRLQGSGVTVNALHPGVARTELGRHTGIHGSTFSSTTLGPIFWLLVKSPELAAQPSTYLAVAEELADVSGKYFDGLKQKAPAPEAEDEEVARRLWAESARLVGLEAPSVREQPLPR
B6: enzyme (Salvia miltiorrhiza, UniProt G3DSC6); chain MAALLLAPVAAVLAVVLYHIYYRLRFRLPPGPFPWPVVGNLYDIKPVRFRCFAEWAQSYGPILSVWFGSTLNVVVSNSELAKEVLKEKDGQLADRHRSRSAVKLSRDGQDLIWADYGPHYVKVRKVCTVVLFSPKRLELLRPIREDEITAMVESIYNDSTASSGKSVVLKKYLASMAFHNITRLVFGKRFVNSEGAVDKQGQEFKAIAINGLKLGASLAMAEHIPWLRWAFPLDEDAFTQHGARMERLTREIMQEHTLLRQKTGGAKNHFFDALLTLKDEYDLSEDTIIALLWDMIAAGMDTPAISVEWAMAELVRNPRVQQKVQEELDRVIGRDRVMTEVDIPNLPYLQCVVKESLRLHPPTPLMLPHRANTNVEIGGYDIPKGSNVNVNVWAVARDPAVWKNPLEFRPERFVEEGIDIKGHDFRVLPFGAGRRVCPGAQLGIDLTTSMIGHLLHHFSWAPPAGMRTEEINLDENPGTVTYMKNPVEALPTPRLAPHLYKRVAVDTI
B7: enzyme K56A (Nitrosopumilus maritimus, UniProt A9A5X4); chain MDSQKFDSIIFDCDGVLVDITQSYDKTIDKTCRYVLKEFAKIDSITIDHKIIDGFASSGGFNDEVDLVYAAILSLYTANKLNKKPSEFIYDVISNTDKTGIRSVQSYLESIYDVSEFLSKLGSLGDRHNNPVYSIFDQFFFGPELYGKLFDKQSKFSEEGMISNDKVILSVSLLETLQKEFGKKIAVVTGRGIESIRYSLKDMMDYFDTKNSAFLEDEPRELAKPNPATLIRAIQSMESKNCLYVGDSMEDYMMAKDAAQAGHSTTFCAIVGTSTNPEDRRKLFADSGVEMILESINDIPKVLNLV
B8: enzyme (Cryptosporidium parvum, UniProt Q8IS93); chain MADLTFMYDLVVIGGGSGGMAAAKEAAKYGKKVALFDFVKPSTQGTKWGLGGTCVNVGCVPKKLMHYSALIASSIHHDAQMFGHKTSSSFEWGKLVETLRNHIRMLNFSYRTGLRVGNVEYINALAKLIDPHSVEYEDNGQKKTITSRYILLATGGRPSIPETVPGAIQYSITSDDIFFLSKSPGKTLVIGASYIGLETAGFLNELGFDTTVAMRSIPLRGFDRQCSEKIVEYMKATGTKFLVGVVPINIEKVNENIKVSFSDGSVEEFETVLYATGRNPDVKGLNLNAIGVEVSDSGKIIAPKDATSVPSIFAVGDIVEGRPELTPVAVKAGILLARRLFAGSNEFIDYDFVPTTVFTPIEYGHVGLSSEAAIAKYGEDDIEEYLSEFSTLEIAAAHREKPEHLRENEMDFALPLNCLAKLVVVKSQGEKVVGFHFVGPNAGEITQGFSLAVKLGATKKDFDDMIGIHPTDAEVFGILEVTKRSGESFVSSGGCGGGKCG
UniProt P06672, sequence (whole entry, looked up): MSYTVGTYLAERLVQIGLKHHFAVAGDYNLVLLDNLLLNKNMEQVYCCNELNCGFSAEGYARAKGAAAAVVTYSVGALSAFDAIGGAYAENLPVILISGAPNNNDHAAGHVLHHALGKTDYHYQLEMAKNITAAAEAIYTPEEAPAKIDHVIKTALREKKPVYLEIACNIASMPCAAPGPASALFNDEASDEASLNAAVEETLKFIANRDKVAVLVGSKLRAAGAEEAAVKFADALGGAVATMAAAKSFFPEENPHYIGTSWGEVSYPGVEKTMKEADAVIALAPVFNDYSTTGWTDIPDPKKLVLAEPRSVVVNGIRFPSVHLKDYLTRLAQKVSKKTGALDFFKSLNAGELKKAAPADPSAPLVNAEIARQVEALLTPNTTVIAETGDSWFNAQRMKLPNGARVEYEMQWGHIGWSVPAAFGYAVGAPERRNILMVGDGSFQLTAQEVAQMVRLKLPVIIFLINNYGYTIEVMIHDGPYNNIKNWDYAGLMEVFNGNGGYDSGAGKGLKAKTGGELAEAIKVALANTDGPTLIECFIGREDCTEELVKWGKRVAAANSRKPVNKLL
UniProt C6WFL3, sequence (whole entry, looked up): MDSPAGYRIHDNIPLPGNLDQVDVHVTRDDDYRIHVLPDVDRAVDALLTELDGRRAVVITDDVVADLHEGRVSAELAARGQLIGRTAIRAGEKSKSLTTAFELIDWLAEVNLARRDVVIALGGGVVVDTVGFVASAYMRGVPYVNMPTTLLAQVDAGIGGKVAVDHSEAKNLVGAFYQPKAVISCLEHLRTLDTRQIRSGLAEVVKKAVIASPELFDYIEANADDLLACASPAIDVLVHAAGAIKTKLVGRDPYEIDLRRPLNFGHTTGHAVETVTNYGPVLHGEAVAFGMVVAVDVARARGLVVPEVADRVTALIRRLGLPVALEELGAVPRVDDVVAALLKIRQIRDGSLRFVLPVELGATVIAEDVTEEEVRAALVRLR
UniProt P32664, sequence (whole entry, looked up): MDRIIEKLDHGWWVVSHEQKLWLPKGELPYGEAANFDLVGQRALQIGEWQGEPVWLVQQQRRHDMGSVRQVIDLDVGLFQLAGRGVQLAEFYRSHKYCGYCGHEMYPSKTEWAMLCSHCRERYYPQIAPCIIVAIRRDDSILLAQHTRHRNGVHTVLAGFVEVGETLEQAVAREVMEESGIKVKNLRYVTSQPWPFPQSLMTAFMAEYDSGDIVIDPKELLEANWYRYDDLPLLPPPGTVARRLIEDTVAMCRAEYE
UniProt O80501, sequence (whole entry, looked up): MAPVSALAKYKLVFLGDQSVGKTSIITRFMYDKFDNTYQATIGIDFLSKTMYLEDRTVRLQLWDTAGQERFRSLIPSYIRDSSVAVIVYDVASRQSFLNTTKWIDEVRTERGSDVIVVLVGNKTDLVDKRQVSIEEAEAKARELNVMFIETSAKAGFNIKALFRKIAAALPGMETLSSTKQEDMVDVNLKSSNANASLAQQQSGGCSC
UniProt P62620, sequence (whole entry, looked up): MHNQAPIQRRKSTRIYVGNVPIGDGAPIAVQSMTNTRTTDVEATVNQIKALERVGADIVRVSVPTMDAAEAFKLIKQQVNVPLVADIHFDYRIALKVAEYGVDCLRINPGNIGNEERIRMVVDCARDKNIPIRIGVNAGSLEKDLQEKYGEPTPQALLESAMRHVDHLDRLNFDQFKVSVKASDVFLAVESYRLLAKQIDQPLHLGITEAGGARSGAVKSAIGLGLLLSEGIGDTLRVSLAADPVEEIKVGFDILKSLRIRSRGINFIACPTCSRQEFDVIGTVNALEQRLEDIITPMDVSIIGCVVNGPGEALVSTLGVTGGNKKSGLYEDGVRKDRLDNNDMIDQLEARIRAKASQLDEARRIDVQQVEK

`enzyme (Ectocarpus siliculosus, UniProt D7FYY3)` gave a kcat of 17.6 ± 0.2 s⁻¹ (Nc1ncnc2c1ncn2[C@@H]1O[C@H](COP(=O)(O)OP(=O)(O)O)[C@@H](O)[C@H]1O; pH 5.5, 25 °C, with: 16 mM PEP).
`enzyme N248Y/R246H (Arabidopsis thaliana, UniProt O24495)` has a kcat of 2.1 ± 0.2 s⁻¹ (C[C@@H](O)C(=O)SC[C@H](NC(=O)CC[C@H](N)C(=O)O)C(=O)NCC(=O)O; pH 7.2, 25 °C).
The kcat of `enzyme (Plasmodium falciparum, UniProt C0H484)` is reported as 0.43 ± 0.01 s⁻¹ (Nc1ncnc2c1ncn2[C@@H]1O[C@H](COP(=O)(O)OP(=O)(O)OP(=O)(O)O)[C@@H](O)[C@H]1O; with: Mn2+).
`enzyme (UniProt A0A1H9C520)` has a kcat of 4.76 s⁻¹ (OC[C@@H](O)[C@@H](O)[C@H](O)[C@@H](O)CO; pH 8, 37 °C).
With `pdc (Zymomonas mobilis, UniProt P06672)` the kcat was 150 ± 5 s⁻¹ (CC(=O)C(=O)O; pH 6, 30 °C).
With `enzyme (Parabacteroides distasonis, UniProt A0A7L5EB83)` the kcat was 14.6 ± 1.2 s⁻¹ (CC(=O)N[C@H]1[C@H](Oc2ccc([N+](=O)[O-])cc2)O[C@H](CO)[C@@H](O)[C@@H]1O[C@@H]1O[C@H](CO)[C@H](O)[C@H](O)[C@H]1O; pH 6, 50 °C).
With `nudC (Escherichia coli, UniProt P32664)` the kcat was 0.014 ± 0.005 s⁻¹ (Nc1ncnc2c1ncn2[C@@H]1O[C@H](COP(=O)(O)OP(=O)(O)OP(=O)(O)OP(=O)(O)OP(=O)(O)OC[C@H]2O[C@@H](n3cnc4c(N)ncnc43)[C@H](O)[C@@H]2O)[C@@H](O)[C@H]1O; with: Mg2+).
`B1 (PYCR2 R119C)` gave a kcat of 1.5 ± 0.1 s⁻¹ (NC(=O)C1=CN([C@@H]2O[C@H](COP(=O)(O)OP(=O)(O)OC[C@H]3O[C@@H](n4cnc5c(N)ncnc54)[C@H](OP(=O)(O)O)[C@@H]3O)[C@@H](O)[C@H]2O)C=CC1; pH 7.5, 37 °C, apparent, cofactor varied, with: DL-P5C 5000 µM).
The kcat of `ispG (Escherichia coli, UniProt P62620)` is reported as 0.335 s⁻¹ (C[C@]1(CO)O[C@@H]1COP(=O)(O)OP(=O)(O)O).
The kcat of `enzyme Y26F (Homo sapiens, UniProt Q08623)` is reported as 0.783 s⁻¹ (O=c1[nH]cc([C@@H]2O[C@H](COP(=O)(O)O)[C@@H](O)[C@H]2O)c(=O)[nH]1; pH 7, 25 °C).
With `B2 (SABP2 A105N)` the kcat was 0.483 s⁻¹ (CC(=O)Oc1ccc([N+](=O)[O-])cc1; pH 7.2, 22 °C).
`B3 (enzyme Y414S/Y415A)` gave a kcat of 0.018 ± 0.002 s⁻¹ (Nc1ncnc2c1ncn2[C@@H]1O[C@H](COP(=O)(O)OP(=O)(O)OP(=O)(O)O)[C@@H](O)[C@H]1O; pH 8.5, 25 °C, apparent, anoxic, with: L-Thr 10 mM).
With `RABH1B (Arabidopsis thaliana, UniProt O80501)` the kcat was 0.04 s⁻¹ (Nc1nc2c(ncn2[C@@H]2O[C@H](COP(=O)(O)OP(=O)(O)OP(=O)(O)O)[C@@H](O)[C@H]2O)c(=O)[nH]1; pH 7.5, 30 °C).
With `B4 (enzyme)` the kcat was 0.00841 s⁻¹ (O=Cc1ccc(C=O)o1; pH 8, 30 °C, with: 2 µM FAD).
With `enzyme (Actinosynnema mirum, UniProt C6WFL3)` the kcat was 0.00667 ± 0.000667 s⁻¹ (O=C(CO)[C@@H](O)[C@H](O)[C@H](O)[C@H](O)COP(=O)(O)O; pH 7.5, 28 °C).
For `enzyme (Oryza sativa, UniProt Q6ZGQ4)`, the kcat was 12 ± 0.2 s⁻¹ (O=[N+]([O-])c1ccc(O[C@@H]2OC[C@@H](O)[C@H](O)[C@H]2O)cc1; pH 4, 40 °C, apparent).
`B5 (RDH13)` has a kcat of 0.673 ± 0.0717 s⁻¹ (CC1=C(/C=C/C(C)=C/C=C/C(C)=C/C=O)C(C)(C)CCC1; pH 7.4, 37 °C).
With `B6 (enzyme)` the kcat was 0.00383 s⁻¹ (O=C(/C=C/c1ccc(O)cc1)O[C@H](Cc1ccc(O)c(O)c1)C(=O)O; pH 7.5, 30 °C, not purified).
With `B7 (enzyme K56A)` the kcat was 0.0017 ± 0.0002 s⁻¹ (N[C@H](COP(=O)(O)O)Cc1c[nH]cn1; pH 7.8, 25 °C).
With `B8 (enzyme)` the kcat was 56.6 ± 3.36 s⁻¹ (NC(=O)C1=CN([C@@H]2O[C@H](COP(=O)(O)OP(=O)(O)OC[C@H]3O[C@@H](n4cnc5c(N)ncnc54)[C@H](OP(=O)(O)O)[C@@H]3O)[C@@H](O)[C@H]2O)C=CC1; pH 7.4, with: DTNB 4 mM).
The kcat of `gdh N192L/N97F (Bacillus subtilis)` is reported as 15.6 ± 0.762 s⁻¹ (NC(=O)c1ccc[n+]([C@@H]2O[C@H](COP(=O)(O)OP(=O)(O)OC[C@H]3O[C@@H](n4cnc5c(N)ncnc54)[C@H](O)[C@@H]3O)[C@@H](O)[C@H]2O)c1; pH 7, 50 °C).

Repeated from above:
With `B2 (SABP2 A105N)` the kcat was 0.483 s⁻¹ (CC(=O)Oc1ccc([N+](=O)[O-])cc1; pH 7.2, 22 °C).
`B3 (enzyme Y414S/Y415A)` gave a kcat of 0.018 ± 0.002 s⁻¹ (Nc1ncnc2c1ncn2[C@@H]1O[C@H](COP(=O)(O)OP(=O)(O)OP(=O)(O)O)[C@@H](O)[C@H]1O; pH 8.5, 25 °C, apparent, anoxic, with: L-Thr 10 mM).
